Published values from different studies.
Each numbered part is a random draw from the data of one study; scales do not carry over between parts.

Series 1 — method: protein-binding microarray; molecule type: double-stranded DNA, one strand shown; sample: in vitro; tested at: not given; reading: higher = stronger binding; endpoint: E-score
Target: Protein C-ets-1 (ETS1, Homo sapiens, UniProt P14921, residues 1-441, full length assumed)
Notes: k-mer, scored over probes, only values ≥0.25
Residues (chain): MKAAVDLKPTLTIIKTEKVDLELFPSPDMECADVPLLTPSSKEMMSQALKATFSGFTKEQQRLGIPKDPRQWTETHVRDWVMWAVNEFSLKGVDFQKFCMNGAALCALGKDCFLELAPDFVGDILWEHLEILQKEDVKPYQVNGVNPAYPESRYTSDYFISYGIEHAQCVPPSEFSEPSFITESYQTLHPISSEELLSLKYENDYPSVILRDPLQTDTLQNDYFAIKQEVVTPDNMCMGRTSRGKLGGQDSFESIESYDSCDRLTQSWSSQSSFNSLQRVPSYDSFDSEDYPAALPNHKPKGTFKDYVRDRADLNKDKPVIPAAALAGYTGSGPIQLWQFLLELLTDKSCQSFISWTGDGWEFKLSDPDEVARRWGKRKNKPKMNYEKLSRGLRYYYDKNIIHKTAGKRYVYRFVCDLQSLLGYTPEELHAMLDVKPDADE
CCCGGACA: 0.358
CACCGGAA: 0.49
CACATCCC: 0.397
GGGTGGTA: 0.259
ACTTCCTG: 0.488
CTCCTTCC: 0.383
CTGCGGAA: 0.363
GACCATCA: 0.265
GGAAGTAA: 0.458
ACCACCGG: 0.264
GCCGGACA: 0.31
TCCTGTCA: 0.416
CCCACCGG: 0.308
CCATCCCG: 0.27
GAAACTTC: 0.336
CAGGAAGC: 0.474
AGGAAAAG: 0.257
CGTCCTGC: 0.353
ATCCGCTC: 0.419
AAGCGGAA: 0.457
ACATCCGC: 0.481
CTTTCCCC: 0.286
TAGCGGAA: 0.448
GGCGGGAA: 0.387
CACGTCCG: 0.462

Series 2 — method: protein binding microarray; molecule type: double-stranded DNA, one strand shown; sample: in vitro; tested at: not given; reference: not given; reading: higher = stronger binding; endpoint: E-score
Target: Histone acetyltransferase KAT6A, winged helix 1, GST fusion (KAT6A, Homo sapiens, UniProt Q92794, residues 1-85)
Notes: 8-mer, flanks averaged, mean of 2 arrays, mostly near background
Target sequence (chain): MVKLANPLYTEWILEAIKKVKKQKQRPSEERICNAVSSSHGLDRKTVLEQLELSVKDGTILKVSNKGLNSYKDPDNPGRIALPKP
AGTTGGCC: -0.0318
TCGCACCA: -0.0795
AAAGGCGA: -0.0522
GTAAGGGA: 0.000375
ACTGAAGT: -0.221
AGCTGCGG: 0.166
CACCTAGG: -0.161
AGAAGAGG: -0.0459
ATTAACAC: -0.122
ACCATGAC: 0.0681
TCGTTAAA: -0.0716
CAAAATAG: -0.277
ATTCTAAG: -0.0504
CGAGATAA: -0.191
ACACTGGC: 0.0128
CCACCACG: 0.0213
GATACTAC: 0.00936
CCGCTCTC: 0.248

Series 3 — method: RNA Bind-n-Seq; molecule type: RNA; sample: in vitro; tested at: not given; reference: input RNA pool; reading: higher = stronger binding; endpoint: bound/input enrichment
Target: RING finger protein unkempt homolog, zinc fingers 1-6, GST-SBP tag (UNK, Homo sapiens, UniProt Q9C0B0, residues 30-357)
UniProt Q9C0B0, sequence (30-357, looked up): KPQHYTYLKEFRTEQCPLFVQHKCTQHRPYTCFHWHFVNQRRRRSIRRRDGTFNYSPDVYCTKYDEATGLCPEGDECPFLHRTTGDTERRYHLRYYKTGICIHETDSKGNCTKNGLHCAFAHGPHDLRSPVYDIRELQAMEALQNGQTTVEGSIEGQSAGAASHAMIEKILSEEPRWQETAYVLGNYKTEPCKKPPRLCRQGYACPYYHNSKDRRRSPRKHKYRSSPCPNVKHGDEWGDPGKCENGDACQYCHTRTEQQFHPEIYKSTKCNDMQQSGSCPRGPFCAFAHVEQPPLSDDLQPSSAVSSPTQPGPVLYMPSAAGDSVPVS
Notes: RNA with constant flanks, human and mouse sites, ends assumed
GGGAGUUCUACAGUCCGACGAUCGCUUGGAUUUUGAAAUUUACUGUAACUGUCAGUGUACACGUCUGGACCCCGUUUCAUUUUUACACCAAUUUGGUAAAAAUGCUGCUCUCAGCCUCCCACAAUUAAACCGCAUGUGAUCUCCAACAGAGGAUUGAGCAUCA: 0.331 ratio
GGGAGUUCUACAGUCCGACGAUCGGUUGUUUCAAUCUAACUGUCAAAGGUCAUGCUAAAUGUGUAGAAGUAGUGAAAACUUUUAACUUGCCAUUGCUGAUGCUCGGUGGAGGAGGCUACACAAUCCGGAAUGUUGCCCGAUGUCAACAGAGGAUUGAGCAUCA: 0.629 ratio
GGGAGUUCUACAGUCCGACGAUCACUGAAAAUAAAGAUAUUUAUUGGAAAAAUGUGAGAGAGAAGUUGUCAGCAGGAGAGAGCAUUAGUUUGGAUGAAUUCAAGUCAUUUUGCCAUUUUACAACCCACUUGGAAGACUUUGCUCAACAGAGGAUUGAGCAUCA: 0.89 ratio
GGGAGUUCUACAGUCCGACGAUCCUGAGCAUGAGAGAGCAGGAGGAAGAGCAUCCUGUCAGAAGCAGCGGCCCUCAGAUUUCUGUGAGCGAGUUCUCCUGCCACUGCUGCUACGACACCCUGGUUAACCCCACCACCUUGAACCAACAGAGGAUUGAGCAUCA: 0.254 ratio
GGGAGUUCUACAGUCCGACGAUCAAUUUAUUAACUGUUGUAUAAAAGCAGAGAAAAAGGACACACCAUGUCCGAUGAAAUCUUCAGCACAACUUUGGCGUACACCAAGAGUCCAAAGGCUACCAAGAGAACUUCCUUUCAGGACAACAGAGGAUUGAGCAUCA: 0.195 ratio
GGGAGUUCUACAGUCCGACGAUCAAUUUUUUUGGUAUUUUUUUAAACGUUCGUGGAUGAAUGCCAACUUUCAGACGGAGCCCACUUAGCUUGUCCACAUGUAUCUCAAUGCCAACCCUCCAUUUUUCCUCUCCAGAUAUUUUUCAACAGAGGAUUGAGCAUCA: 2 ratio
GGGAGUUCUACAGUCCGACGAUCGAUGAGGUGUUGGUAAAUCACUUCUGUGAAGAAUUUGGAAAGAAAUACAAGCUAGACAUAAAAUCUAAAAUUCGUGCUUUAUUACGACUGUCUCAAGAGUGUGAGAAACUCAAGAAAUUGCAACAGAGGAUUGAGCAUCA: 0.542 ratio
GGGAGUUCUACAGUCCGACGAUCGUUGGCUUGUCAGAUGAACUGGCUAAACUGGAUGCAUUUGUAGAAGGAGUGGUUAAGAAAGUAGCUCAAUACAUGGCUGAUGUAUUGGAAGAUAGCAAAGACAAAGUUCAAGAGAAUCUGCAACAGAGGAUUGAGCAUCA: 0.609 ratio
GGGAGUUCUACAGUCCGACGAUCCUGUGCAUUUCUGAAAAACAGGAGAAUGAUGUCAUUAAUGCUAUCCUUAAGCAAUACACGGAAGAAAAAGAGUUUGUAGAGAAGCACUUUAAUGACUUAAACAUGAAAGCCUCAGAACAACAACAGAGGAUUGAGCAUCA: 0.126 ratio
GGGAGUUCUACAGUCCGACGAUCGUGAGCUUGCGGGGGAUUGGCAGUCCCAGCACAGAUGCCAGUGCCAGUGCCGUCCACGGCAAUUUCGCCUUCGAGGGCAUUGGAGAUGAGGAUCUGUAAUCUCAGCUGCCUGGAUGUCUGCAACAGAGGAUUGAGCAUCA: 0.104 ratio
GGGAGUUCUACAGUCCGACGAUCCUUAAUGUUUCAUAAGGAGUAAAUUCUGGCAACCAUGUUUCUUGACUUCAUCUACGGUAUAUAGAGCAUAAGGAAUGACAGCAAUUUAAUAUGUACAGGUAGAUAAAUAACCAGCAUCUUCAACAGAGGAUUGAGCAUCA: 0.255 ratio

Series 4 — method: RNA Bind-n-Seq; molecule type: RNA; sample: in vitro; tested at: 365 nM; reference: no-protein control; reading: higher = stronger binding; endpoint: RBNS enrichment (R)
Target: RNA binding protein fox-1 homolog 2, RRM domain, GST-SBP tag (RBFOX2, Homo sapiens, UniProt O43251-10, residues 100-194)
Notes: natural RNA segment, single round, ends assumed
Construct (chain): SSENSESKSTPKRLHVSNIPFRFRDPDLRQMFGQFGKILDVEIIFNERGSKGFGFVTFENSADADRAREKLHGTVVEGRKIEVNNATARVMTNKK
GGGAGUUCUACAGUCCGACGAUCUGGACCGCUUCCCCUGCCUUCUCUCUGCCGUGGCCCAGAGCCGGCCCAGCUGCACACACACACCAUGCUCUCGCCCUGCUGUAACCUCUGUCUUGGCAGGGCUGUCCCCUUGGAAUUCUCGGGUGCCAA: 0.855
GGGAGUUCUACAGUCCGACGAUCAGGGCUCUUUCAAGCCGACUUUCACAAAGAGAGCCGGACUUGUUAGUUGGCUUCUGUCUCUUUAGAGCCAAGAAAAUAGUAAUUAAGUGGCCUAGAUAUAGGAAGGGCAGUGGAAUUCUCGGGUGCCAA: 0.264
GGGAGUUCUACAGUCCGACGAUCCUGCGGGUUGUAGCUAAAUAUUCCAUUUCUUUGAAAUCAUGUUUCUAAAUUCUUUACCAUCAGAAAGAAAAGGAGUGUCAUACACUUUCAAGGGAAGGCUUGGUCUGCGUUGGAAUUCUCGGGUGCCAA: 0.412
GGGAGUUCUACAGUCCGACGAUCUUGCCCUGAAGUCUUACCUUCUCCCAUUGCAUUCAAGGCCUAUAGCACAAAGUGCAUCUCAGAGAUGUGCUAGUGGCUUAUCCUGGGCUUGGCCUGCAACAUGGGAGGCUUGGAAUUCUCGGGUGCCAA: 0.336
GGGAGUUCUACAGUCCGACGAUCAAAGGGAGCUAGCACCUCUCCAUCCCUUUCUCUUACUGCCAUUGGAAAUUAUUUUAGGGCUGAGAUAGGGGUGGAACGAGCAGGCUUGUUUCCACCAAUAGUGCCAAGAAUGGAAUUCUCGGGUGCCAA: 0.366
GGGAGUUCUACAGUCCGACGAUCUGUGACUCGAGAUUGCAGUUGCAACUUGGCAGCUUUUUUCUACUGGACAGGAAGAUGGCAGAAGCUACGCUAUUGUCAUAGCAAAAGAGCUUUCUAUUUGGCACAUACCAUGGAAUUCUCGGGUGCCAA: 0.429
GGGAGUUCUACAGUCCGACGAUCUUGAAAUGAUUUAAUAAUAUGAGUGAGGAUUUGCUUUCUCCAUUAGAGCAUUAAGCUAAAACUAUCAACAUUUUAAACCAAAUUGCCUUAUUUUUCUUCCAAACUUCAUAUGGAAUUCUCGGGUGCCAA: 0.604
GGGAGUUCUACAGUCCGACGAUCCUCGAUUGAAGGUGACCUCUGCCCCAGAUAGGUGGUGCCAGUGGCUUAUUAAUUCCGAUACUAGUUUGCUUUGCUGACCAAAUGCCUGGUACCAGAGGAUGGUGAGGCGAUGGAAUUCUCGGGUGCCAA: 0.433
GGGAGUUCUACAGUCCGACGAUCGUGAGAGCCUUUGCCUUUAGGGGUGUGUAUUCACAUAGUCCUCAGGGCUCAGUCUUUUGAGGUAAGUGGAAUUAGAGGGCCUUGCUUCUCUUCUUUCCAUUCUUCUUGCUUGGAAUUCUCGGGUGCCAA: 0.214
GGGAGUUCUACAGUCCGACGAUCUUAUACUUUUGUACAUAUGAGAAAUCAAGGGAUUAGUGCAACCAGUAGAAAGCAUUGAAAUGACUGUCAUUAACCACACAGUCCUGGAGGCAGAGAUGCAGUUACCUACCUGGAAUUCUCGGGUGCCAA: 0.597
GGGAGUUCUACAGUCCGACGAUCCUCUCCGAGAAAGGGGAGCCAGAGCCGCUCACUGUGGUUCUGUUCCGACCUUGAAGGGGCGGUAUUGGCCUGGCUUCUGGAAUGGACAGAGUCCACCAGGAAAGACUGGGUGGAAUUCUCGGGUGCCAA: 0.266
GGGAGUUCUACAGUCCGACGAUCACCUGUUAUUACCAUUAGCAUUCUGGUUUUGACAUCAGCAUUAGUCACUUUGAAAUGUAACGAAUGGUACUACAACCAAUUCCAAGUUUUAAUUUUUAACACCAUGGCACUGGAAUUCUCGGGUGCCAA: 1.43

A few entries again (series 1):
GACCATCA: 0.265
GGAAGTAA: 0.458
ACCACCGG: 0.264
GCCGGACA: 0.31
TCCTGTCA: 0.416
CCCACCGG: 0.308
